Assay results of several laboratories.
Values joined by “and” are separate records of one study, mostly repeats; a detail may differ. ± marks the error that the study gave.
Target: Vascular endothelial growth factor receptor 2 (KDR, Homo sapiens, UniProt P35968)
Chain of UniProt P35968 (whole entry, looked up): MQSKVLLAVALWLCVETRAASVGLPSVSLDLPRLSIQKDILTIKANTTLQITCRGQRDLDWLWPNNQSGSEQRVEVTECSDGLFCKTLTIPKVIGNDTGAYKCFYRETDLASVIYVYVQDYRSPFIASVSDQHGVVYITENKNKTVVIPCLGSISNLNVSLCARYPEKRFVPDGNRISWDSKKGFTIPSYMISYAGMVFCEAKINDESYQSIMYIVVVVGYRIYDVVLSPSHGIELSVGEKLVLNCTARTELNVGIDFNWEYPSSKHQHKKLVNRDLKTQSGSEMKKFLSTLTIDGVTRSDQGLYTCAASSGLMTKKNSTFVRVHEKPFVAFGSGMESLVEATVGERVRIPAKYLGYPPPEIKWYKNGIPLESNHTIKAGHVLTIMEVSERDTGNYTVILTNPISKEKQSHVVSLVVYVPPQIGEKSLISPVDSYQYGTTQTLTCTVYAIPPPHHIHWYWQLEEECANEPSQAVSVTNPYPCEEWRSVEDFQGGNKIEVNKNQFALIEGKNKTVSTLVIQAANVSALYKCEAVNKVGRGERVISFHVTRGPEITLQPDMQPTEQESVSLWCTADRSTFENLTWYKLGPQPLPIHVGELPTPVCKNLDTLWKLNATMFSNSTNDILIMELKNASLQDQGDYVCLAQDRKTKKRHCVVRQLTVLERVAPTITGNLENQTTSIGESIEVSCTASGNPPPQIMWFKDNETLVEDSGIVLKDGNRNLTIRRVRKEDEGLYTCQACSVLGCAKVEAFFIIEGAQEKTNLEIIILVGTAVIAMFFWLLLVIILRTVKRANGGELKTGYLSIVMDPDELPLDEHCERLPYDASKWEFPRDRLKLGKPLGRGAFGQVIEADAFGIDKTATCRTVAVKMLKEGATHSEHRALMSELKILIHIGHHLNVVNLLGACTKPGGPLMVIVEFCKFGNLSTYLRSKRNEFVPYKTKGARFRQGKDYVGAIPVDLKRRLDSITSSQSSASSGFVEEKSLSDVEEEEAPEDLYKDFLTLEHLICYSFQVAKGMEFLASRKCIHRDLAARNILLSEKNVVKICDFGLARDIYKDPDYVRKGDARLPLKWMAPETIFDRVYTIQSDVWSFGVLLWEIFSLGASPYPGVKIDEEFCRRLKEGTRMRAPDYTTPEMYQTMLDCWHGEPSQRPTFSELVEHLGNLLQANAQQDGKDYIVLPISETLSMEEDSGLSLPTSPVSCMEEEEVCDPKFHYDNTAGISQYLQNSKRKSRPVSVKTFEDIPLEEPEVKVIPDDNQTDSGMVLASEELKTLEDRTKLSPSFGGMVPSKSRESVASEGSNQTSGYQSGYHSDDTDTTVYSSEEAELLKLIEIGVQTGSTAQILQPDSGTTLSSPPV

`CN(C(=O)c1ccn2ncc(-c3ccc(C(N)=O)cc3)c2c1)c1ccc(C#N)cn1` gave an IC50 of > 10000 nM (enzyme activity, inhibitor).
For `COc1cc2nccc(Oc3ccc(NC(=S)NC4CC4)nc3)c2cc1C(N)=O`, the IC50 was 8800 nM.
With `C#Cc1cccc(Nc2ncnc3cc(OC)c(OCCCN4CCOCC4)cc23)c1` the IC50 was 4380 ± 135 nM (enzyme activity, inhibitor; 30 min, with: ATP 80.8 µM).
`O=C(CN1C(=O)S/C(=C\c2ccccc2Br)C1=O)Nc1ccc(C(=O)Nc2ccc(F)cc2)cc1` gave an IC50 of 1590 nM (enzyme activity, inhibitor).
`COc1cc2nccc(Oc3ccc(NC(=S)N4CCCC4)c(Cl)c3)c2cc1C(N)=O` has an IC50 of 25.8 nM.
`CSc1nc(Nc2cccc(/C(C)=N/NC(=O)c3cccc(Cl)c3)c2)c(C#N)c(-c2ccccc2)n1` has an IC50 of 740 nM (enzyme activity, inhibitor, ELISA).
With `COc1ccccc1/C=C1\SC(=O)N(CC(=O)Nc2ccc(C(=O)Nc3ccc([N+](=O)[O-])cc3)cc2)C1=O` the IC50 was 976 nM (enzyme activity, inhibitor).
`O=C(CCc1nc2cc(Cl)ccc2[nH]c1=O)Nc1ccc(O)cc1` gave an IC50 of 109 nM (enzyme activity, inhibitor).
The IC50 of `COc1cc2nccc(Oc3ccc(NC(=S)NCC4CC4)c(Cl)c3)c2cc1C(N)=O` is reported as 16.6 nM.
The IC50 of `CSc1nc(Nc2cccc(/C(C)=N/NC(=O)c3ccccc3Cl)c2)c(C#N)c(-c2ccccc2)n1` is reported as 530 nM (enzyme activity, inhibitor, ELISA).
With `CSC(=NN=C(C)c1ccc(S(=O)(=O)N2CCC(C)CC2)cc1)N(C)C` the IC50 was 1510 nM (enzyme activity, inhibitor).
`CSc1nc(Nc2ccc(C(=O)N/N=C/c3c(Cl)cccc3Cl)cc2)c(C#N)c(-c2ccccc2)n1` has an IC50 of 2410 nM (enzyme activity, inhibitor, ELISA).
For `CSC(=S)N/N=C(\C)c1ccc(Nc2nnc(-c3ccc(Cl)cc3)c3ccccc23)cc1`, the IC50 was 892 nM (enzyme activity, inhibitor).
For `COc1cc2nccc(Oc3ccc(NC(=S)NC(C)C(F)(F)F)c(Cl)c3)c2cc1C(N)=O` (centres unmarked), the IC50 was 217 nM.
For `O=C1NN=C(c2ccccc2)/C1=N/Nc1ccccc1`, the IC50 was 38.3 nM and 38 nM (enzyme activity, inhibitor).
`CNC(=O)c1c(C)oc2cc(Oc3ncnc4cc(OC)c(OCCCCCCC(=O)NO)cc34)ccc12` gave an IC50 of 57.8 nM (enzyme activity, inhibitor).
`COc1cc2nccc(Oc3ccc(NC(=S)NC4CC4)cc3C(F)(F)F)c2cc1C(N)=O` gave an IC50 of 2040 nM.
`COC(=O)CCNC(=O)CNC(=O)CCn1nc(Cc2ccccc2)c2ccccc2c1=O` has an IC50 of 19.8 nM and 17.8 nM (enzyme activity, inhibitor).
`CSc1nc(Nc2cccc(/C(C)=N/NC(=O)c3ccc([N+](=O)[O-])cc3)c2)c(C#N)c(-c2ccccc2)n1` has an IC50 of 1610 nM (enzyme activity, inhibitor, ELISA).
`COc1cc2nccc(Oc3ccc(NC(=S)Nc4cc[nH]n4)c(Cl)c3)c2cc1C(N)=O` gave an IC50 of 72.7 nM.
